Published values of several laboratories.
Each line is one published result; not all experiments were run side by side. Several values in a cell are separate wells, animals, samples, runs or records. Numbers after ± are the reported error.
ALB: Albumin (ALB, Homo sapiens, UniProt P02768)
RIPK1: Receptor-interacting serine/threonine-protein kinase 1 (RIPK1, Homo sapiens, UniProt Q13546)
Chain of UniProt Q13546 (whole entry, looked up): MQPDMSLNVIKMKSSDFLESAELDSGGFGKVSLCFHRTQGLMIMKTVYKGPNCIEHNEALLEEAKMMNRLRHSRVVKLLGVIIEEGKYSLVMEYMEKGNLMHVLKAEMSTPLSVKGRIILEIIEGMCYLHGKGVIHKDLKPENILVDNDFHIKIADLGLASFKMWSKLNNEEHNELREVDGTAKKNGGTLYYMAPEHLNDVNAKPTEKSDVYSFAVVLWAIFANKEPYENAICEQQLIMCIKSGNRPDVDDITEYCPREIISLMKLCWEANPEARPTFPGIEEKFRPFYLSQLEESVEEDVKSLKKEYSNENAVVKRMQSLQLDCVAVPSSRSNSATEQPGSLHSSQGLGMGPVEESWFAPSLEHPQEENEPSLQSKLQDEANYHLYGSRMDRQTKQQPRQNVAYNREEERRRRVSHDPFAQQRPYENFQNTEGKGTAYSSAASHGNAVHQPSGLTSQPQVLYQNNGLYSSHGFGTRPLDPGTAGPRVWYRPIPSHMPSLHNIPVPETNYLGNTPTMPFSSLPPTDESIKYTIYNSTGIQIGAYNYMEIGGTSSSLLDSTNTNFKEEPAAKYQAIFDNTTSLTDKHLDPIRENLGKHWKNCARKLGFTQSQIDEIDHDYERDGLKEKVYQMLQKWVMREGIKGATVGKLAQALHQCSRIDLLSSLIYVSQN
ADORA1: Adenosine receptor A1 (ADORA1, Homo sapiens, UniProt P30542)
Chain of UniProt P30542 (whole entry, looked up): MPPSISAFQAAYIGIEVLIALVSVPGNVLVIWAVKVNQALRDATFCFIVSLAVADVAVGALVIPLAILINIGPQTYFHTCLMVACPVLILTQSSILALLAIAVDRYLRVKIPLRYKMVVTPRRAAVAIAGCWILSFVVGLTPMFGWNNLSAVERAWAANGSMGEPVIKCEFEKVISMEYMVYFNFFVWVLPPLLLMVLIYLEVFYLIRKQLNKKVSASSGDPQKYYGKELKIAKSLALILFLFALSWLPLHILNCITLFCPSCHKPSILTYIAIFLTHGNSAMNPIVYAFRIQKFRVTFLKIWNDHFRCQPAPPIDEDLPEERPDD
Bone morphogenetic protein 2: Bone morphogenetic protein 2 (Homo sapiens, UniProt P12643)
Chain of UniProt P12643 (whole entry, looked up): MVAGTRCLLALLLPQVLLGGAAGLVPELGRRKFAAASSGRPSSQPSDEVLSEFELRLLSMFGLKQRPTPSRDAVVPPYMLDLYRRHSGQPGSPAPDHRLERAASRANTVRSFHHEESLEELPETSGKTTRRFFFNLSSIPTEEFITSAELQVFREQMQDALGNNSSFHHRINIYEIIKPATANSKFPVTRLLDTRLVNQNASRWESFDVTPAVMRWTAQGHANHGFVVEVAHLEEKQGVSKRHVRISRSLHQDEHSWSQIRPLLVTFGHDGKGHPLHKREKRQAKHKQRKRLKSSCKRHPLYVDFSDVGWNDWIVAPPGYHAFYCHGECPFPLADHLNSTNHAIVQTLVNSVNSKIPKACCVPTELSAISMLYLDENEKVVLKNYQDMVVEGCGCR
ABO G235S/G268A/L266M/R176G: Histo-blood group ABO system transferase (ABO, Homo sapiens, UniProt P16442, G235S/G268A/L266M/R176G)
Chain of UniProt P16442 (whole entry, unmodified, looked up): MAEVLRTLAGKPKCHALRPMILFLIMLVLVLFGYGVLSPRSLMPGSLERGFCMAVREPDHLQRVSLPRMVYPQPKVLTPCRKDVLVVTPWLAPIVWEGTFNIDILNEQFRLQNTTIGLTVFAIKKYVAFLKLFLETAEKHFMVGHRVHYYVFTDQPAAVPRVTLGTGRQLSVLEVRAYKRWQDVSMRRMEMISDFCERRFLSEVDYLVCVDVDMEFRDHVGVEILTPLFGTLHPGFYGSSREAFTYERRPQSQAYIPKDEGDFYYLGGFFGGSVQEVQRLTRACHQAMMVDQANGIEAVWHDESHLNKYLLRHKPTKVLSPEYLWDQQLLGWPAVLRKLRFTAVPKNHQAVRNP
Chain of UniProt Q9H6Y2 (whole entry, looked up): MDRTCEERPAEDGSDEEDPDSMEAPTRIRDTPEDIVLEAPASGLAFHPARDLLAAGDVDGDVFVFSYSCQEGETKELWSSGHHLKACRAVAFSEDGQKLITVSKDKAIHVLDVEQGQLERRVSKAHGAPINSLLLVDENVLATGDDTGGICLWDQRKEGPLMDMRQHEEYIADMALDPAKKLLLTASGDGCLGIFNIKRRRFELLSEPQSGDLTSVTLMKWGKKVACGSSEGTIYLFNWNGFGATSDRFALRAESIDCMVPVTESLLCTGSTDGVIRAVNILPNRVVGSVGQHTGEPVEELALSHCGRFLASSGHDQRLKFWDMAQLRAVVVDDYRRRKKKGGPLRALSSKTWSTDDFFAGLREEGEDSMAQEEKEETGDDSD
Chain of UniProt Q92879 (whole entry, unmodified, looked up): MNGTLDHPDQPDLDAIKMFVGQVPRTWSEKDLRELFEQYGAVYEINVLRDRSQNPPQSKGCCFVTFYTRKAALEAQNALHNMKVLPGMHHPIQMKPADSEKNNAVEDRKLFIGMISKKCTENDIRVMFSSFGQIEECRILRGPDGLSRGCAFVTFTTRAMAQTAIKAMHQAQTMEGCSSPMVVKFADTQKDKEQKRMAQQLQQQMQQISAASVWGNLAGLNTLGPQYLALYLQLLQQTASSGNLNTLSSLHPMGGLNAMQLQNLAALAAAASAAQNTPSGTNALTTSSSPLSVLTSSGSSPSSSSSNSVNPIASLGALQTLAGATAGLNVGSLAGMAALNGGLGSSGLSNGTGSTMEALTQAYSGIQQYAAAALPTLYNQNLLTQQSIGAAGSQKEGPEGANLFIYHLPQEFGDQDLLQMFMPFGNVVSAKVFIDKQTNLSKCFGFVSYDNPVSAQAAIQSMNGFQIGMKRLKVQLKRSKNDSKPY
Chain of UniProt P53779 (whole entry, looked up): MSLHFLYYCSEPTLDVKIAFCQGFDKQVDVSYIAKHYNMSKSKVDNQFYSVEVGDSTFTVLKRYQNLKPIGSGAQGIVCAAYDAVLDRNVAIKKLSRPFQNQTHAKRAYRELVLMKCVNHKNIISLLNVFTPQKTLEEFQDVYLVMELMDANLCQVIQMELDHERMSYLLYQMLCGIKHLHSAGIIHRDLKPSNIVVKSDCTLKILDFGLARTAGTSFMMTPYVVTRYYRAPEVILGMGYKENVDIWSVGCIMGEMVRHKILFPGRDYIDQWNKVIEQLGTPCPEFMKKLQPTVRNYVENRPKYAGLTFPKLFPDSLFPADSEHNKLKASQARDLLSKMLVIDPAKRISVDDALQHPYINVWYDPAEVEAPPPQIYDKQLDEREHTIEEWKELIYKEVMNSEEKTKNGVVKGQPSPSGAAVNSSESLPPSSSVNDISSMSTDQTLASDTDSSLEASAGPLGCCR
Chain of UniProt Q8TE23 (whole entry, looked up): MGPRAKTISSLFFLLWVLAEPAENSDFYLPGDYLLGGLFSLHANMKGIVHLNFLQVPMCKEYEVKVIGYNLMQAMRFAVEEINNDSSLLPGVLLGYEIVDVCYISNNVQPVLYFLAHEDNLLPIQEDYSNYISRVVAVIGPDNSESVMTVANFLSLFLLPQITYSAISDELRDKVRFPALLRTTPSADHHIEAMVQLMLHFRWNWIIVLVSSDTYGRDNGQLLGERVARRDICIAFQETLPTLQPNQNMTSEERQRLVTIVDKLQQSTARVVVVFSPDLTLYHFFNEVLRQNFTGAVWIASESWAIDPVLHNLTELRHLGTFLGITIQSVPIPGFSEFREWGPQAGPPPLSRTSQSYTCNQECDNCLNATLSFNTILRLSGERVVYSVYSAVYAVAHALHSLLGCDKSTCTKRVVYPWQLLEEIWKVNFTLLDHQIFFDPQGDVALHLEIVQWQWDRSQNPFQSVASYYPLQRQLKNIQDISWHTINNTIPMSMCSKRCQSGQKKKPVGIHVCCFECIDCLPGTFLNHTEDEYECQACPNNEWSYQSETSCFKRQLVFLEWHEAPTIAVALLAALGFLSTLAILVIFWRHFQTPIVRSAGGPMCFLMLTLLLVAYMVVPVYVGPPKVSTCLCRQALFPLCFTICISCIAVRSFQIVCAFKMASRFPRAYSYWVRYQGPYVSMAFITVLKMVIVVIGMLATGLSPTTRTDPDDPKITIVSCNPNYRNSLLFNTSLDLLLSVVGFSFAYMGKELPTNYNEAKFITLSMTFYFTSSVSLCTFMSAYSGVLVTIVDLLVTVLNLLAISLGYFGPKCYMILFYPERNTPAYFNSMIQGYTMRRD
Chain of UniProt P01008 (whole entry, looked up): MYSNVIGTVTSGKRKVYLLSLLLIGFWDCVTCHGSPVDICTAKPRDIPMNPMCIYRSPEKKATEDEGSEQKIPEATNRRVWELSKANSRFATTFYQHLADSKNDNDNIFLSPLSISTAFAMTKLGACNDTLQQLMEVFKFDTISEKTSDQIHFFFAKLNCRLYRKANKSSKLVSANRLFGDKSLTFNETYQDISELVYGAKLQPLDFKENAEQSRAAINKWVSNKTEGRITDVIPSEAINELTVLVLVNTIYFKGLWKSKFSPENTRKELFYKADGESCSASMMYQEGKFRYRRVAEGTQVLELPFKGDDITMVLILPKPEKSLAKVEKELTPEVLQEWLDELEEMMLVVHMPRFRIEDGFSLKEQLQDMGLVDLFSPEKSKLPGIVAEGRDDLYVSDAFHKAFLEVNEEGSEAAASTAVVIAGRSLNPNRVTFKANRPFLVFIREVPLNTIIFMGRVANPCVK

COc1cc2c(c(OC)c1OC)-c1c(cc3c(c1OC)OCO3)CC(C)C(C)(O)C2OC(=O)c1ccccc1 (stereo not drawn)  Kd (TAS1R2 (Homo sapiens, UniProt Q8TE23); binding; 0.5% DMSO): 0.000385 µM
Cc1cc(N2CC[C@@](C#N)(C3(C)CC3)C2=O)cc(C(=O)NCc2cc(F)cc(-c3cnn(C)c3)c2)n1  Kd (EPRS1 (Homo sapiens, UniProt P07814); binding, MST): 0.124 µM
O=C(N[C@@H](Cc1ccc(OCCCCC2CCNCC2)cc1)C(=O)O)c1nc2ccccc2o1  Kd (ALB; binding; human plasma; ODE model from unbound fraction, 639 µM albumin): 6.11 µM
O=C(Cc1cccc(C(F)(F)F)c1)Nc1cc(Oc2c(F)cc3nc(NC(=O)C4CC4)sc3c2F)ccc1F  Kd (RIPK1; binding, competition with immobilised ligand): 0.096 µM
Nc1ncnc2c1ncn2[C@@H]1O[C@H](CO)[C@@H](O[C@H]2O[C@H](CO)[C@@H](OP(=O)(O)O)[C@H](OP(=O)(O)O)[C@H]2O)[C@H]1O  Kd (Inositol 1,4,5-trisphosphate-gated calcium channel ITPR1, N-terminal region (Itpr1, Rattus norvegicus, UniProt P29994, del318-332); [3H]IP3 competition binding; N-terminal fragment; cytosol-like medium): 0.0772 µM
CC(=O)N[C@@H]1[C@@H](O[C@@H]2O[C@H](C(=O)O)[C@@H](O[C@@H]3O[C@H](COS(=O)(=O)O)[C@@H](OS(=O)(=O)O)[C@H](O[C@@H]4O[C@H](C(=O)O)[C@@H](O[C@@H]5O[C@H](COS(=O)(=O)O)[C@@H](OS(=O)(=O)O)[C@H](O[C@@H]6O[C@H](C(=O)O)[C@@H](OS(=O)(=O)O)[C@H](OS(=O)(=O)O)[C@H]6OS(=O)(=O)O)[C@H]5NC(C)=O)[C@H](OS(=O)(=O)O)[C@H]4OS(=O)(=O)O)[C@H]3NC(C)=O)[C@H](OS(=O)(=O)O)[C@H]2OS(=O)(=O)O)[C@H](OS(=O)(=O)O)[C@@H](COS(=O)(=O)O)O[C@H]1N=[N+]=[N-]  Kd (Metalloproteinase inhibitor 3 (Homo sapiens, UniProt P35625); ligand displacement, FP): 0.67 µM
CCCn1c(=O)c2[nH]c(-c3ccc(OCC(=O)NCCNS(=O)(=O)c4cccc5c(N(C)C)cccc45)cc3)nc2n(CCC)c1=O  Kd (ADORA1; CRE reporter gene, antagonist, parallel shift; CHO-A1; Gi-mediated inhibition, with: NECA and forskolin): 0.0427 µM
CC(O)c1c(Oc2ccc(F)c(NC(=O)Cc3cccc(C(F)(F)F)c3)c2)ccc2nc(NC(=O)C3CC3)sc12 (stereo not drawn)  Kd (RIPK1; binding, competition with immobilised ligand): 0.022 µM
Cc1c(OCc2ccc(Cl)c(Cl)c2)ccc(-c2cc[nH]n2)c1O  Kd (Inducible T-cell costimulator (Homo sapiens, UniProt Q9Y6W8); binding, SPR): 185 µM
CC(=O)N[C@@H]1[C@@H](O[C@@H]2O[C@H](C(=O)O)[C@@H](O[C@@H]3O[C@H](COS(=O)(=O)O)[C@@H](OS(=O)(=O)O)[C@H](O[C@@H]4O[C@H](C(=O)O)[C@@H](OS(=O)(=O)O)[C@H](OS(=O)(=O)O)[C@H]4OS(=O)(=O)O)[C@H]3NC(C)=O)[C@H](OS(=O)(=O)O)[C@H]2OS(=O)(=O)O)[C@H](OS(=O)(=O)O)[C@@H](COS(=O)(=O)O)O[C@H]1N=[N+]=[N-]  Kd (Antithrombin-III (SERPINC1, Homo sapiens, UniProt P01008); ligand displacement, FP): 3.76 µM
CC(=O)N[C@H]1[C@@H](OP(=O)(O)OP(=O)(O)OC[C@H]2O[C@@H](n3ccc(=O)[nH]c3=O)[C@H](O)[C@@H]2O)O[C@H](CO)[C@@H](O)[C@@H]1O  Kd (ABO (Homo sapiens, UniProt P16442); binding, methyl-TROSY NMR titration; pH 6.8, 298 K, apo enzyme, with: Mg2+): 374 ± 13 µM
OC(Cc1cc(-c2ccc(C(O)C(F)(F)F)s2)sc1-c1ccc(-c2sc(-c3ccc(C(O)C(F)(F)F)s3)cc2CC(O)C(F)(F)F)s1)C(F)(F)F (stereo not drawn)  Kd (Microtubule-associated protein tau, 0N4R isoform, aggregated (MAPT, Homo sapiens, UniProt P10636); binding, fluorescence; 30% sucrose tau fraction): 3.04 ± 0.71 µM
COc1cc2c(cc1-c1c(C)noc1C)ncc1[nH]c(=O)n([C@H](C)c3ccccn3)c12  Kd (Bromodomain factor 2 (Trypanosoma brucei brucei, UniProt Q38AM1); SPR; Trypanosoma brucei): 33 ± 25 µM
C[C@@H]1Cc2cc(-c3ccnc4ncnn34)ccc2O1  Kd (WD repeat-containing protein 55 (WDR55, Homo sapiens, UniProt Q9H6Y2)): > 25 µM
O=C1C(=O)c2cccnc2-c2ncccc21  Kd (TAS2R5 (Homo sapiens, UniProt Q9NYW4); HEK293 cell membranes): 0.9 ± 0.7 µM
C=C1C(=O)O[C@@H]2/C=C(\C)[C@@H](OC(C)=O)C/C=C(\COC(C)=O)C[C@@H](OC(=O)/C(C)=C/CO)[C@@H]12  Kd (USP7 (Homo sapiens, UniProt Q93009); binding, SPR): 6.85 µM
CN(C)CCNC(=O)c1cccc2c(NCCCCc3c(N)nc(N)nc3N)c3ccccc3nc12  Kd (RNA with A–A mismatch; binding, ITC; 25 °C, 1): 118 µM and > 100 µM
C[n+]1ccc(/C=N/NC(=O)c2cccc(C(=O)N/N=C/c3cc[n+](C)c4ccccc34)n2)c2ccccc21  Kd (telomeric antiparallel G4 DNA; binding, native ESI-MS; 100 mM trimethylammonium acetate; 1 mM KCl): < 0.001 µM
CS[C@@H]1O[C@H](COS(=O)(=O)O)[C@@H](OS(=O)(=O)O)[C@H](O[C@@H]2O[C@H](C(=O)O)[C@@H](O[C@@H]3O[C@H](COS(=O)(=O)O)[C@@H](OS(=O)(=O)O)[C@H](O[C@@H]4O[C@H](C(=O)O)[C@@H](OS(=O)(=O)O)[C@H](OS(=O)(=O)O)[C@H]4OS(=O)(=O)O)[C@H]3NC(C)=O)[C@H](OS(=O)(=O)O)[C@H]2OS(=O)(=O)O)[C@H]1NC(C)=O  Kd (Bone morphogenetic protein 2; ligand displacement, FP): 2.36 µM
Cc1ccc(Oc2nc3cc(-c4ccc5c(ccn5C)c4)c(Cl)cc3[nH]2)cc1C(=O)O  Kd (PRKAA1/PRKAB1, phosphorylated; with gamma1 (Homo sapiens, UniProt Q13131+Q9Y478, K40A/K42A); biolayer interferometry; AMPK complex α1(K31A/K33A)β1γ1): 2.05 µM
C=CCCCCCCO[C@@H]1O[C@H](CO)[C@@H](O)[C@H](O[C@@H]2O[C@H](CO)[C@H](O)[C@H](O)[C@H]2O[C@@H]2O[C@@H](C)[C@@H](O)[C@@H](O)[C@@H]2O)[C@H]1NC(C)=O  Kd (ABO G235S/G268A/L266M/R176G; methyl-TROSY NMR titration lineshape; two-state binding model, with: acceptor binding, saturating UDP): 44 ± 2 µM
CCNC(=O)[C@H]1O[C@@H](n2cnc3c(NCCCNC(=O)CCCCCNC(=O)COc4ccc(/C=C/C5=[N+]6C(=Cc7ccc(-c8cccs8)n7[B-]6(F)F)C=C5)cc4)ncnc32)[C@H](O)[C@@H]1O  Kd (ADORA1; radioligand binding; CHO-A1; apparent, from IC50, with: [3H]DPCPX): 0.24 µM
CCCCCCCCO[C@@H]1O[C@H](CO)[C@H](O)[C@H](O[C@H]2O[C@H](CO)[C@H](O)[C@H](O)[C@H]2O)[C@H]1O[C@@H]1O[C@@H](C)[C@@H](O)[C@@H](O)[C@@H]1O  Kd (ABO G235S/G268A/L266M/R176G; methyl-TROSY NMR titration lineshape analysis; apo enzyme): 264 ± 4 µM
O=C(Cc1cccc(C(F)(F)F)c1)Nc1cc(Oc2c(Cl)cc3nc(NC(=O)C4CC4)sc3c2Cl)ccc1F  Kd (RIPK1; binding, competition with immobilised ligand): 0.064 µM
O=C(NCc1ccco1)c1nn[nH]c1Nc1ccccc1  Kd (MAPK10 (Homo sapiens, UniProt P53779); binding, mass spectrometry): 21 µM
O=C(/C=C/c1ccc(O)c(O)c1)NCCCCCCCC[P+](c1ccccc1)(c1ccccc1)c1ccccc1  Kd (ALB; fluorescence quenching; range from 25 °C, order over all temperatures): ~10 µM
CCCn1c(=O)c2[nH]c(-c3ccc(OCC(=O)NCCNC(=O)CCCCCNC(=O)CCCCCNS(=O)(=O)c4cccc5c(N(C)C)cccc45)cc3)nc2n(CCC)c1=O  Kd (ADORA1; CRE reporter gene, antagonist; CHO-A1; Gs response, PTX-pretreated overnight, with: NECA and forskolin): 0.102 µM
Nc1ncnc2c1ncn2[C@@H]1O[C@H](CN(CCNc2ncnc3c2ncn3[C@@H]2O[C@H](CO)[C@@H](O)[C@H]2O)CC[C@H](N)C(=O)O)[C@@H](O)[C@H]1O  Kd (Ribosomal RNA large subunit methyltransferase J (rlmJ, Escherichia coli, UniProt P37634)): 25 ± 3 µM
CCNC(=O)[C@H]1O[C@@H](n2cnc3c(Nc4ccc(I)cc4)ncnc32)[C@H](O)[C@@H]1O  Kd (ADORA3 (Homo sapiens, UniProt P0DMS8); kinetic radioligand binding; no GTP, with: [3H]PSB-11): 0.00076 ± 0.00013 µM
CN(C)c1cc2ccccc2c(N)n1  Kd (CUGBP Elav-like family member 1, RRM1/2 domains (CELF1, Homo sapiens, UniProt Q92879, R148A); isothermal titration calorimetry; 25 °C): 19.9 ± 2.8 µM
CC(C)C[C@H](NC(=O)[C@H](CC(C)C)NC(=O)CNC(=O)[C@@H](NC(=O)[C@H](CC(=O)O)NC(=O)[C@H](CC(=O)O)NC(=O)[C@H](Cc1ccc(OS(=O)(=O)O)cc1)NC(=O)[C@H](Cc1ccc(O)cc1)NC(=O)[C@H](CO)NC(=O)[C@@H](NC(=O)[C@@H](NC(=O)CNC(=O)[C@H](Cc1ccccc1)NC(=O)[C@@H](NC(=O)[C@H](CCC(=O)O)NC(=O)[C@@H](N)C(C)C)[C@@H](C)O)[C@@H](C)O)[C@@H](C)O)C(C)C)C(=O)O  Kd (Eotaxin (CCL11, Homo sapiens, UniProt P51671); binding, NMR; pH 6.5): 22 µM
O=c1[nH]cnc2c(CN3C[C@H](O)[C@@H](O)C3)c[nH]c12  Kd (PNP (Homo sapiens, UniProt P00491); enzyme activity, inhibitor; pH 7.4, 25 °C, first subunit slow-onset, with: 50 mM phosphate): 0.053 ± 0.002 µM
CC(=O)N[C@@H]1[C@@H](O[C@@H]2O[C@H](C(=O)O)[C@@H](O[C@@H]3O[C@H](CO)[C@@H](O)[C@H](O[C@@H]4O[C@H](C(=O)O)[C@@H](O)[C@H](O)[C@H]4O)[C@H]3NC(C)=O)[C@H](O)[C@H]2O)[C@H](O)[C@@H](CO)O[C@H]1N=[N+]=[N-]  Kd (Bone morphogenetic protein 2; fluorescence polarization competition): no binding

Some of these lines once more:
C[n+]1ccc(/C=N/NC(=O)c2cccc(C(=O)N/N=C/c3cc[n+](C)c4ccccc34)n2)c2ccccc21  Kd (telomeric antiparallel G4 DNA; binding, native ESI-MS; 100 mM trimethylammonium acetate; 1 mM KCl): < 0.001 µM
CCNC(=O)[C@H]1O[C@@H](n2cnc3c(Nc4ccc(I)cc4)ncnc32)[C@H](O)[C@@H]1O  Kd (ADORA3 (Homo sapiens, UniProt P0DMS8); kinetic radioligand binding; no GTP, with: [3H]PSB-11): 0.00076 ± 0.00013 µM
CN(C)c1cc2ccccc2c(N)n1  Kd (CUGBP Elav-like family member 1, RRM1/2 domains (CELF1, Homo sapiens, UniProt Q92879, R148A); isothermal titration calorimetry; 25 °C): 19.9 ± 2.8 µM
